Published values gathered from unrelated publications.
Compare with care: the assays were run in different laboratories.
Target: Serine/threonine-protein kinase TAO2 (TAOK2, Homo sapiens, UniProt Q9UL54)
Residues used in one study (Q9UL54 1-1235): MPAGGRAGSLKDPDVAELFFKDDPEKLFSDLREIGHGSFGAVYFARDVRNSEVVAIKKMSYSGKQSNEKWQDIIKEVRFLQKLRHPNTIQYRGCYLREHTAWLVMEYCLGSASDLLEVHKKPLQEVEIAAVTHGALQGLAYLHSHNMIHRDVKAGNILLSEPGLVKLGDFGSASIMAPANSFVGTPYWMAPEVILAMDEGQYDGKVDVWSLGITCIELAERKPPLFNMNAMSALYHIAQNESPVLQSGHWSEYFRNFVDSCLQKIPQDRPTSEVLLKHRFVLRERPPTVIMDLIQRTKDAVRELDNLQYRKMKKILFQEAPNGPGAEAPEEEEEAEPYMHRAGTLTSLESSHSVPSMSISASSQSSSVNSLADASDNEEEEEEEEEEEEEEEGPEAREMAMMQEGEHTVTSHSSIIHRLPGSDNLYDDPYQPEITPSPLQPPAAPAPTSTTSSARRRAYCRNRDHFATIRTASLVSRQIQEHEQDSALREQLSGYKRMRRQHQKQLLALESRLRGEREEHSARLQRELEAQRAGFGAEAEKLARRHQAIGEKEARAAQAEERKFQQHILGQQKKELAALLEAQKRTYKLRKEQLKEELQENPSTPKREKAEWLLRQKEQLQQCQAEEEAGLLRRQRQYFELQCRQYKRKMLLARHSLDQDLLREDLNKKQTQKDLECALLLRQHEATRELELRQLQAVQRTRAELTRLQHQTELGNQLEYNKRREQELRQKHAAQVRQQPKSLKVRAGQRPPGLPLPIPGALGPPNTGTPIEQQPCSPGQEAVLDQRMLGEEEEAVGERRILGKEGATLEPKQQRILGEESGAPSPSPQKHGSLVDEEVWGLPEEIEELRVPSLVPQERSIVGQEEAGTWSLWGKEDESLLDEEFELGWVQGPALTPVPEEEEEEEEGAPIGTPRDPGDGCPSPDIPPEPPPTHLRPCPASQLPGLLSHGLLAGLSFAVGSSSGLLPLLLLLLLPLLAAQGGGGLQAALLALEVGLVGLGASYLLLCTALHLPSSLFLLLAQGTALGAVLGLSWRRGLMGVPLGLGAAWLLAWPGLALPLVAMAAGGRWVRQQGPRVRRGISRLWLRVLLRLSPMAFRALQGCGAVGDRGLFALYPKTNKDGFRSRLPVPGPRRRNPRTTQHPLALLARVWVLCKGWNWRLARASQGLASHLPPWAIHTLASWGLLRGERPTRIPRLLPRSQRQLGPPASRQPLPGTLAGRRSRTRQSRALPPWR

| Compound | test | test system | setting | scale | measurement | value |
| --- | --- | --- | --- | --- | --- | --- |
| COc1cc(F)ccc1-c1ncnc(Nc2cccc(C[S@](C)(=N)=O)c2)n1 | kinase activity |  | 10 µM, with: 10 µM ATP |  | remaining activity | 47% |
| CC[C@@H]1[C@H](F)C(=O)N[C@@H]1COc1nccc2cc(C(N)=O)c(OC)cc12 | ATP probe binding, KiNativ profiling, measured: Lys2 probe site | THP-1 cell lysate | 0.2 mM |  | inhibition | -6.6% |
| Cc1cc(Nc2cc(N3CCN(C)CC3)nc(Sc3ccc(NC(=O)C4CC4)cc3)n2)[nH]n1 | kinase activity, KinaseProfiler |  | 0.03 µM, species human | reference: control | remaining activity | 103% |
| COc1cc2ncnc(Nc3ccc(Oc4ccccc4)c(C)c3C)c2cc1OC | kinase activity, inhibitor |  | 1 µM |  | inhibition | -4% |
| COc1cc(N2CCN(C)CC2)ccc1Nc1nc(N)n(C(=S)NCc2c(Cl)cccc2Cl)n1 | enzyme activity |  | 10 µM | reference: control | remaining activity | 2.8% |
| C=CC(=O)N1CCC(COCC(=O)N2CCN(c3nc(-c4cnc(N)nc4C(F)F)nc(N4CCOC[C@@H]4C)n3)CC2)CC1 | KINOMEscan |  | 1 µM |  | remaining binding | 90% |
| CC(C)(O)[C@H]1CC[C@H](Nc2ccc3ncc(-c4cccc(C(F)(F)F)c4)n3n2)CC1 | enzyme activity, inhibitor |  | 1 µM, with: 10 µM ATP | reference: DMSO | remaining activity | 89.8% |
| CCOc1cc(-c2nncn2C)ccc1Nc1ncc2cc(C)nc(NCC(C)(C)C)c2n1 | kinase activity, Z'-LYTE |  | 1 µM |  | inhibition | < 15% |
| CN(C)CC#Cc1ccc2[nH]c3c(c2c1)-c1nc(N)ncc1CCC3 | kinase activity, inhibitor, radiometric |  | 1 µM, with: ATP at Km |  | remaining activity | 79% |
| CN(C)C1CCN(CC#Cc2nn(C3CCCC3)c3nc(NCc4ccccc4)ncc23)C1 (stereo not shown) | enzyme activity, inhibitor, Z'-LYTE |  | 1000 nM |  | inhibition | 2% |

Repeated from above:
| Compound | test | test system | setting | scale | measurement | value |
| --- | --- | --- | --- | --- | --- | --- |
| COc1cc2ncnc(Nc3ccc(Oc4ccccc4)c(C)c3C)c2cc1OC | kinase activity, inhibitor |  | 1 µM |  | inhibition | -4% |
